Measurements from different studies.
Numbered parts are unrelated; each lists some results of a single study.

Series 1 — technique: EMSA with sequencing; form: double-stranded DNA, one strand shown; sample: in vitro; concentration: 10 and 20 nM; reference: negative control set to 0; direction: higher = stronger binding
Target: Hepatocyte nuclear factor 3-alpha (Foxa1, Mus musculus, UniProt P35582, residues 1-468, full length assumed)
Notes: whole designed probe, mean of two concentrations, ends assumed
All sequences stand within: GTGAGCGGTGCCCATTGATGGGGAAC … TTTCACTGGGATCGTGGGGAC
Target sequence (chain): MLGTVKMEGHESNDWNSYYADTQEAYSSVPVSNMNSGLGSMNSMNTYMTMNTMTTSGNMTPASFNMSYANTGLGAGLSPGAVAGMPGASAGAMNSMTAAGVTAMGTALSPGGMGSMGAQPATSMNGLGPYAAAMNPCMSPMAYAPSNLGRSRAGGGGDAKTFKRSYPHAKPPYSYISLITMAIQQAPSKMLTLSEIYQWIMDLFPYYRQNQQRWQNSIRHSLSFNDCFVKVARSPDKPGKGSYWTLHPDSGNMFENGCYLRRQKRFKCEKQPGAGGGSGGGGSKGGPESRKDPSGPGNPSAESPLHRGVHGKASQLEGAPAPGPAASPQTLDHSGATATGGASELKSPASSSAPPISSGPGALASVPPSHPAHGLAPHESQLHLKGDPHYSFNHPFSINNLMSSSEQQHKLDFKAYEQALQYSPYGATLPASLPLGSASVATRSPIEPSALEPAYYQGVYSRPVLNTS
| Sequence | normalised bound fraction [ratio] |
| --- | --- |
| ATCTTCCCCCTCTTCCTTGCCCCACCAGCTCACCTTCCCGGGTTATTTGCACAAAGGAAAATAAATAAAGCCGGCATTCGTTAACCCTCTTCTGGCGCAAACTGCTGTTTGCTCTGGATGAATCATGGTCCTTTGGCGAGGCGTGGCTCCGGGAGAGCAAAGCACCGTGTCAGGGCCATGATCCGGGCTCGCC | 0.366 |
| CCAAAGTATCACAGGGAGAGATGGGCCTCTTGGGGCAGCAGCAGCAGCTGAAGCAGGCTGACTCACAGCTGCTTCTAATATGCTAGGCTTTGTGTAATCTGGCTTTATGACACAAGTGGGCTGACTACAGTGCAATTGGAGTGTGGCATCTGAGTCACTGTGAGGCTCTAGCTGGCTTCTTCCAGCCCTGGCC | -0.0197 |
| ATCTTCCCCCTCTTCCTTGCCCCACCAGATGGCGTTCTATTCCTCCCTGCAGATAGGAAAATAAATAAAGCCGGCATTCGTTAACCCTCTTCTGGCGCAAACTGCTGTTTGCTCTGGATGAATCATGGTCCTTTGGCGACGCCAGGCTCCGGGAGAGCAAAGCACCGTGTCAGGGCCATGATCCGGGGTGGCC | 0.316 |
| TTTAGCTGTTTGAATATAATATGTTTACGTTTACTCCTCTTCTTCCTCCTGCCTCCCTTTCTCTTCCTTCTTTCTCTTATTTTTCTTCTATCCAGATTGCTCTTCTTAGGTTAATGAATGTAGTTTGGTGTCATTATTTTTAAAAACTCTGAGCAACCATCCTTACAAATACTGTTTCTGCCCTGTTCTCTCC | 0.0653 |
| CAAGACCCCTTGGCCCTCATCATGTTTTCCCAGCATCAAACCTTTAGACGTATTTAATGGCCCAAGGCATTCCAAGAATGAATATATTTGTGTGTACTCTAGCAACCAACCAAAGAGATGGTTAATGTTTCATAAGACTGCCTAGTCACATTGTTGACATCTGAAACATCTTCTAATTTAAGACAGAGTTCAG | 0.13 |

Series 2 — technique: protein binding microarray; form: double-stranded DNA, one strand shown; sample: in vitro; concentration: not given; reference: not given; direction: higher = stronger binding
Target: Histone acetyltransferase KAT6A, winged helix 2, GST fusion (KAT6A, Homo sapiens, UniProt Q92794, residues 85-181)
Notes: 8-mer, flanks averaged, mean of 2 arrays, mostly near background
Target sequence (chain): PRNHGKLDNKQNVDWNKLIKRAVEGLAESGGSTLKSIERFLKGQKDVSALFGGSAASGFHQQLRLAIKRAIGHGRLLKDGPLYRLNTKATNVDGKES
| Sequence | E-score |
| --- | --- |
| AACTATTG | 0.0488 |
| TGCGTTAA | -0.0258 |
| AACAATCT | 0.0458 |
| AGAATCCA | -0.0363 |
| GCAAGCCA | 0.00949 |
| GTCTATTA | -0.111 |
| ACGAAACG | -0.0718 |
| AGGCTAAA | -0.0482 |
| AGTCCTGC | -0.13 |
| GATACCAC | 0.0979 |
| ATTCATCC | 0.0347 |
| ATTGCTAC | -0.00879 |
| GGTCTTGA | -0.0797 |
| CTGCCATC | 0.115 |
| GACCTCCA | 0.033 |
| TCAAGTCA | -0.127 |
| CGTGGCCA | 0.0592 |
| AACGAATC | -0.0645 |

Series 3 — technique: RNA Bind-n-Seq; form: RNA; sample: in vitro; concentration: 200 nM; notes: whole 134-nt RNA, ends assumed; together with: 150 mM LiCl; reference: input library; direction: higher = stronger binding; all molecules: 7-deaza-guanosine replaces G
Target: Fragile X messenger ribonucleoprotein 1, C-terminal low-complexity region (Fmr1, Mus musculus, UniProt P35922)
All sequences stand within: GGGAGUUCUACAGUCCGACGAUC … UGGAAUUCUCGGGUGUCAAGG
| Sequence | log2 enrichment |
| --- | --- |
| UGGGAGGUGGAUUUUGUUUAUUUUUUUAGCUCAUUUCCAGGGGUGGGAAUUUUUUUUUAAUAUGUGUCAUGAUUAAAGUUGUUUUUGAAA | 0.0567 |
| GCAGGAAGUAAAAACAAAUGGAAAUGCUUCGGAUAGUGGCAGGGGUGGGGGUUGCUAAGGAAAGGGUGGGAUGGGAGUGAAAAAAGAGUU | 1.36 |
| GCAGGAAGUAAAAACAAAUGGAAAUGCUUCGGAUAGUGGCAGGGGUGGGGGUUGCUAAGGAAAGGGUGGGAUGAGAGUGGGUAAAGAGUU | 1.41 |
| UAACUUUAGAGGAGGAUCUGAUGUAUAUGGCAGUGGACGUGGAUUUGGGGAUGGCUAUAAUGGGUAUGGAGGAGGACCUGGAGGUGGCAA | 0.432 |
| UCCUGUGCUACACAUCGUAUGUACCGAAUCGGGAAAGGGAAAAAAAGGGUUUUUUUGGGAAAGUAUUAUGUUACGCCGUUCGGAUCUGCA | -1.28 |
| CACAGACAACACGCGCCCACACAGACACAGAGGGAAGGGGUUGGGAUGGGGACAGGGUGCACAGCAGGGCGGGGUAGGACCCCAGCCCCU | 0.717 |
| CACAGACAACACGCAGCCACACAGACACAGAGGGAAGGGGUUGGGAUGGGGACAGGGUGCACAGCAGGGCGGGGUAGGACCCCAGCCCCU | 1.76 |
| UAACUUUAGAGGAGGAUCUGAUGGAUAUGGCAGUGGACGUGGAUUUGGGGAUCGCUAUAAUGGGUAUGGAGGAGGACCUGGAGGUGGCAA | 0.397 |

Series 4 — technique: RNA Bind-n-Seq; form: RNA; sample: in vitro; concentration: not given; reference: input RNA pool; direction: higher = stronger binding
Target: RING finger protein unkempt homolog, zinc fingers 1-6, GST-SBP tag (UNK, Homo sapiens, UniProt Q9C0B0, residues 30-357)
Notes: RNA with constant flanks, human and mouse sites, ends assumed
All sequences stand within: GGGAGUUCUACAGUCCGACGAUC … CAACAGAGGAUUGAGCAUCA
Residues (chain): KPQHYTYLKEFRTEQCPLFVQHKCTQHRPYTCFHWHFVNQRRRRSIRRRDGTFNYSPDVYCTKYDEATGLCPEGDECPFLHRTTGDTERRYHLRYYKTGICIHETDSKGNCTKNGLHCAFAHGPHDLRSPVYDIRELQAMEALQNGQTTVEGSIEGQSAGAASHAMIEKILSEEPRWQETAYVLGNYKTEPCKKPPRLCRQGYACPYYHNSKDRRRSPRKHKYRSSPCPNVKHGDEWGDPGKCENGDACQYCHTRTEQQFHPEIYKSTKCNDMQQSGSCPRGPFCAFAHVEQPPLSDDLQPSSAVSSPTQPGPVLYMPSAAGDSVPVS
| Sequence | bound/input enrichment |
| --- | --- |
| GCUCUGCCCCCAAACCUCACGAGUGAGCCCAUUCCUGCUGGGGGCUGUACUUUCAGUGGUAUUUUCCCAACAUUAACCUCUCCACUUUAACCUCUUCUAAAAUACCCAACCAAAAGAUCA | 0.421 ratio |
| UUAAAUUUUCCAUUAAUUUCAACAUAAUUAUGGGAACAAGUGUACAGAAGAAUUUUUUUUUUAAGAUAUGUGAGAACUUUUCAUAGAUGAACUUUUUAACAAAUGUUUUCAUUUACAGGA | 1.19 ratio |
| GACUCCACAGAUUGUGAGUGUGUGAGUGUGUGUGUGAGUGAGAGAAAAAGAGAGAGAUGGUUAGUCUGUUUAACCUGUCUGUCUAUCUGUCAUUUCUUCCUCUGGACCUGGGGCAGCCAA | 0.304 ratio |
| GCAAGGCUAGAAGAGCUAUCAGACUCAGAUGAUGAACUUGACUGAAAACACACCAAGUCACUGUCAUUUUCCCUUGUGCCUCGGCCAGCUUCGCUCAGAUCCAGCACACCCUCUUGCUAC | 0.0988 ratio |
| UUUGUAAACUGAAAUUCUGUAUGUGUAAGAGAUGUUUAAAUAUGUUUGGGUCCUAAACAGCUUUUUAAAAUUAUACUUGGGAAUAAAUUCAGCAUCUUUUCAAAUAAACUCUAUGAAAGA | 0.281 ratio |
| GAGAGGGAUGGUGGGACCAGUUACUCUCCACAAGAAAAUUCACACAACCACAGUGCUCUUCAUAGUUCAAAUUCACAUUCUUCUAAUCCAAGCAAUAACCCAAGCAAAACUUCAGAUGCA | 1.73 ratio |

Excerpt of the above (series 2):
| Sequence | E-score |
| --- | --- |
| TGCGTTAA | -0.0258 |
| AACAATCT | 0.0458 |
| AGAATCCA | -0.0363 |
